# Assay results pooled from the literature.
# A part holds a random share of what one study measured.

# Block 1
# Target: RNA binding protein fox-1 homolog 2, RRM domain, GST-SBP tag (RBFOX2, Homo sapiens, UniProt O43251-10, residues 100-194)
# Technique: RNA Bind-n-Seq
# Form: RNA
# Matrix: in vitro
# Concentration: 365 nM
# Notes: natural RNA segment, single round, ends assumed
# Reference: no-protein control
# Reading: higher = stronger binding
# Constant ends, left off below: GGGAGUUCUACAGUCCGACGAUC … UGGAAUUCUCGGGUGCCAA
# Target sequence (chain): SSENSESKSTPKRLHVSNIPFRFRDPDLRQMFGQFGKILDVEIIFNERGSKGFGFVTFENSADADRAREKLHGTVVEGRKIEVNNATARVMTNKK
Oligonucleotide,RBNS enrichment (R)
GGGCCGCAGAUGGCAAAGGGAGUGCCUGGGCCUGGUGACCCAGGGCUGGAUCCACCCCUGCGGAGCCCUGGGCCAGGCAGGUGUCUGCUGCUCACCUGGCUCUGGAGGGC,0.505
GUGUUCGGGGCUCCCACCAUCUGUCCAGCCUUCUUGGCCACCAGCUCUGUCCCUCCUUCCUAGAUAGGGAUGAUCAGAAGGUAGCCAUCUCUUCUUGCAGCUGCCUGGCC,0.422
GUUCUGGAGCCUCAUCUGGCUGGGAUCUCCAAGGGGCCUCCUGGAUUCAGUCCCCACUGGCCCUGAGCACGACAGCCCUUCUUACCCUCCCAGGAAUGCCGUGAAAGGAG,2.73
AUUUGGAAACUACAGUAAAGAAACCUUCAGAUACCAGUUCCAUCCUGAAGCCCUCUGUUGAACAACAGGGCCAGAUCCUAAAGCUCUUUCAGGGAGCUCUUCUCUGGGGC,0.276
CAGGGCUUUUUAUAACUAAAACCAGUUCACUAGAGACCUAGGAAUGGGCUGGGCUGAAAGUGAAAUAUUUUCUCCCUGGAUUUUUACCAGCCAUCACCUUGGACCACCAA,0.373
AAUACAGUUAACUAAUUGUAAAUAUGCUGUUAACCAAAAGAGCUUUCCCUCCCUCACUUUUUCCUUUGUAAACACUCAUGACUGCUUCUCUGUCUCGAGUCAUCUCUGCA,0.939
CCCCUUUUCUGAUCAUUCGUGCGCAGAGGGCCUCCCAGUAAUGCCACGCUCUCCAUGCUAGAGAGCCUUCUCUUUCCUCUGAGGUUUGAACUGAUGUUCUGUGUCUUCAC,0.321
AAAUUGCUUGUCUAUAGUUGUCUGCAGUACUGUAUGAUUUUACCCAUGUGCAAUUUGUAAAAUGAACCAGAUGUCACUACUUUUGUCUUUAUUUCAAGAAUAUGGCCAUC,1.25
GGGCUGGGUCAUUGGGCCUGCAGCAGCAUCUGCCCAGAUGCAUCCAAGAACUUGUUAACCCUCCCUUAGCCCCUGCCCAUCCAAAGCUGGGCACACGCCUCAGAGCUGCC,0.329
CAAUAAACAAAGAAGCGAAGAUAAGAAAGAAGGCCUCAUAUCCAAUUACCUCACUCAUUCACAUGUGAGCGACACGCAGACAUCCGCGAGGGCCAGCGUCACCAGACCAG,0.314
UUUAUUUUUUAACUAAAGCUAUAUAAAGCUUGUGGAUUAAACAGAAUAAAUUUCUAAAUUUAAGAACUUGCCACUCACAUUUAUUCGCCUGCAGGGGAGGACGGAGUUCA,1.26

# Block 2
# Target: Sal-like protein 4, full length isoform A (SALL4, Homo sapiens, UniProt Q9UJQ4, residues 1-1053)
# Chain of UniProt Q9UJQ4 (whole entry, looked up): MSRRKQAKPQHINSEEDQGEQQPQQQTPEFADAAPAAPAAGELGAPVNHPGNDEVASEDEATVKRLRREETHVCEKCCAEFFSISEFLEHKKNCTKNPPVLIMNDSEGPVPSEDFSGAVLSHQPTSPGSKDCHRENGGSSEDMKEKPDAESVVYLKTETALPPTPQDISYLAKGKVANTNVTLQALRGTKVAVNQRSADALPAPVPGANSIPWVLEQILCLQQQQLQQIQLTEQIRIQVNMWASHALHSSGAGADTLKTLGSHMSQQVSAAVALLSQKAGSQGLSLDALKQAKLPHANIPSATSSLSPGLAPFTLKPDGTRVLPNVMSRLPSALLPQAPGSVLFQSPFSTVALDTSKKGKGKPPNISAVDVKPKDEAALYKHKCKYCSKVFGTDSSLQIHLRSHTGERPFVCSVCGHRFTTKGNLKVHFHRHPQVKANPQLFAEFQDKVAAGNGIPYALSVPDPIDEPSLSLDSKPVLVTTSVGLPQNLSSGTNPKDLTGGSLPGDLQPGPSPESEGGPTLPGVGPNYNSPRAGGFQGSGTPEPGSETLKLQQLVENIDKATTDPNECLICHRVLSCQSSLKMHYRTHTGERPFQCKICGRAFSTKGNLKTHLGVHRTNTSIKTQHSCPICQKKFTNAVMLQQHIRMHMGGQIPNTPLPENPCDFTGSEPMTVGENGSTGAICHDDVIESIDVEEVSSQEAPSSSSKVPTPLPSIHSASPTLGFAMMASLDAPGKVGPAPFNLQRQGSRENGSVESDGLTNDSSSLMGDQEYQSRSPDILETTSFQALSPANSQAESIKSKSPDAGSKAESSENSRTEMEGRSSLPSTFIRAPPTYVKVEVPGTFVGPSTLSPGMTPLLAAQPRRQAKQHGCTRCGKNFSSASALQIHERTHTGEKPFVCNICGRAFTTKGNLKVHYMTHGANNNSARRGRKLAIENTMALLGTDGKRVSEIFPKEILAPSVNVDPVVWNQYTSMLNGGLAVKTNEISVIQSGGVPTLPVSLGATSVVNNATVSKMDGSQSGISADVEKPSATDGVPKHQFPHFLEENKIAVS
# Technique: universal PBM
# Form: double-stranded DNA, one strand shown
# Matrix: in vitro
# Concentration: 600 nM
# Notes: 8-mer, flanks averaged, mean of replicates
# Reading: higher = stronger binding
Oligonucleotide,E-score
GCCGTGCA,-0.154
ATTCTAGC,0.117
CACGGTGC,-0.241
ATACCAGC,-0.0656
ATTGAATG,0.233
CAACACTC,-0.0273
AGCGCGCG,-0.249
GAGTCGCC,-0.378

# Block 3
# Target: Ras GTPase-activating protein-binding protein 1, full length (G3BP1, Homo sapiens, UniProt Q13283)
# Chain of UniProt Q13283 (whole entry, looked up): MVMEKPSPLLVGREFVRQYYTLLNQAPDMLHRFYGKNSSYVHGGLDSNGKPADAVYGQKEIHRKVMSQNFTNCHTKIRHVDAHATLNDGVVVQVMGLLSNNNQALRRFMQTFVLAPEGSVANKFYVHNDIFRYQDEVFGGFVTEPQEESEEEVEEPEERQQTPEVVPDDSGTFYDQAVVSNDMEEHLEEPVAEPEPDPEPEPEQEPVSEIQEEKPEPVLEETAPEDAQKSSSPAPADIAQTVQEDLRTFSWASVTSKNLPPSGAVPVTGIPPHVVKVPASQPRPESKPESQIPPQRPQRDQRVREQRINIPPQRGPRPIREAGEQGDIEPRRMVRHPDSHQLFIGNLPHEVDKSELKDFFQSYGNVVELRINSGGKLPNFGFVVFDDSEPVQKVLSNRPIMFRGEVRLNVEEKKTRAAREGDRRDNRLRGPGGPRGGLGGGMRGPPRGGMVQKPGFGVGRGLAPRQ
# Technique: RNA Bind-n-Seq
# Form: RNA
# Matrix: in vitro
# Concentration: 200 nM
# Notes: whole 134-nt RNA, ends assumed
# Added: 150 mM KCl
# Reference: input library
# Reading: higher = stronger binding
# Constant ends, left off below: GGGAGUUCUACAGUCCGACGAUC … UGGAAUUCUCGGGUGUCAAGG
Oligonucleotide,log2 enrichment
GUCCUGUGCUACACAUCGUAUGUACCGAAUCGGUUUUUUUGGUUUUUGGUUUUUUUGGAAAGUAUUAUGUUACGCCGUUCGGAUCUGCAC,-1.16
GUCCUGUGCUACACAUCGUAUGUACCGAAUCGGGGCCCCCGGGGCCCCCGGGCCCCCGGAAAGUAUUAUGUUACGCCGUUCGGAUCUGCA,1.17
UGGGAGGUGGAUUUUGUUUAUUUUUUUAGCUCAUUUCCAAGGGUGGGAAUUUUUUUUUAAUAUGUGUCAUGAAUAAAGUUGUUUUUGAAA,-0.187
UGCAUGUGCACUGAUAGGCCAAGGCCAGCUGAACCAGGCCAUGAAAAUCCUACAAAAAGCUGAAGGUUGGAAGUUUGUUAAACUUAUCUG,-1.42
CAAGUCCUGUGCUACACAUCGUAUGUACCGAAUCGGUUUUGGUUUUGGGGUUUUGGAAAGUAUUAUGUUACGCCGUUCGGAUCUGCACUU,-1.2

# Further values, each from its own experiment
Molecule,target,test,system,conditions,how to read,quantity,value
"PhoQ, residues 284 288 289 292 302 303 AGHLVA","PhoP, residues 12 14 15 18 19 TQAIL (Escherichia coli, UniProt P23836)","Sort-seq, item: YFP reporter",E. coli,"PhoQ-PhoP variant library, added: 10 µM Mg2+","reference: high Mg2+ state, higher = stronger signaling",fold induction,22.9

# Excerpt of the above (block 2):
Oligonucleotide,E-score
ATACCAGC,-0.0656
CAACACTC,-0.0273
CACGGTGC,-0.241
GCCGTGCA,-0.154
